Results from different studies.
Lines come from different studies, so protocols differ.

Structure (SMILES) | assay | system | setting | scale | Cmax
CCOc1c([C@H](C)n2nc(C)c3c(N)ncnc32)cc(Cl)c(F)c1[C@@H]1CNC(=O)C1 |  | human, all cohorts, plasma | oral, 30 mg, day 15 |  | 2720 nM
C=CCn1c(=O)c2cnc(Nc3ccc(N4CCN(C)CC4)cc3)nc2n1-c1cccc(C(C)(C)O)n1 |  | human | oral, 200 mg once daily, monotherapy lead-in, -5 days | geometric mean | 678 nM
CCn1cc(C(=O)N2CCOCC2)c(=O)c2cc(NC3Cc4ccccc4C3)cnc21 |  | human, fed | oral suspension, 1200 mg/day twice daily, day 1, arithmetic mean |  | 1320 ng/mL
C[C@@H]1CCO[C@H]2Cn3cc(C(=O)NCc4ccc(F)cc4F)c(=O)c(O)c3C(=O)N12 |  | human paediatric patients, weight sample B to under sample C kg, plasma | oral, 25 mg dispersible tablet, steady state, geometric mean, population PK post-hoc, N 22 |  | 5590 ng/mL
Cl.[2H]C([2H])([2H])CC(=O)c1cnc(NC(=O)C2CC2)cc1Nc1cccc(-c2ncn(C([2H])([2H])[2H])n2)c1OC | geometric mean | human | oral, 20 mg once daily, day 1, fasted, liquid, multiple dose |  | 175 ng/mL
CCN1CCN(Cc2ccc(Nc3ncc(F)c(-c4cc(F)c5nc6n(c5c4)[C@H](C)CCC6)n3)nc2)CC1 |  | human, Phase Ib patients, plasma | 300 mg, single dose, mean, with: fulvestrant |  | 163 ng/mL
COc1cc(N2CCC(N3CCN(C)CC3)CC2)ccc1Nc1ncnc(Nc2ccccc2S(=O)(=O)C(C)C)n1 |  | human, plasma | oral, 325 mg, day 1 |  | 650 ng/mL
CNC(=O)c1ccc(-c2cnc3ncc(Cc4ccc5ncccc5c4)n3n2)cc1F |  | human severe hepatic impairment NCI | oral, 200 mg single dose, mean |  | 950 ng/mL
COc1ncc(-c2nc3c(n2C(C)C)[C@H](c2ccc(Cl)cc2)N(c2cc(Cl)cn(C)c2=O)C3=O)c(OC)n1 | LC-MS/MS, noncompartmental | human, plasma | oral, 200 mg, C1D8, high-dose, geometric mean |  | 1160 ng/mL
O=C(O)CCC(=O)O.[2H]C([2H])([2H])Oc1cc(C)c2[nH]ccc2c1CN1CC[C@@H](C2CC2)C[C@H]1c1ccc(C(=O)O)cc1 |  | human, plasma | 50 mg twice daily, day 1, multiple ascending dose, geometric mean |  | 1000 ng/mL

Repeated from above:
Structure (SMILES) | assay | system | setting | scale | Cmax
CCN1CCN(Cc2ccc(Nc3ncc(F)c(-c4cc(F)c5nc6n(c5c4)[C@H](C)CCC6)n3)nc2)CC1 |  | human, Phase Ib patients, plasma | 300 mg, single dose, mean, with: fulvestrant |  | 163 ng/mL
